# Assay results pooled from the literature.
# Several values in a cell are separate wells, animals, samples, runs or records. ± gives the spread as reported.
Structure (SMILES),assay,system,setting,how to read,endpoint,value
C[C@H](O)[C@@H](NC(=O)[C@H]1CCCN1C(=O)[C@@H](CCCCN)NC(=O)[C@@H](CO)NC(=O)[C@@H](Cc1ccc(O)cc1)NC(=O)[C@@H](CC(N)=O)NC(=O)CCOCCOCCOCCNC(=O)CN1CCN(CC(=O)O)CCN(CC(=O)O)CCN(CC(=O)O)CC1)C(=O)N[C@H](CC(=O)O)C(=O)N[C@H](CCCNC(=N)N)C(=O)N[C@H](CCC(N)=O)C(=O)N[C@H](Cc1ccc(O)cc1)C(=O)N[C@H](Cc1c[nH]cn1)C(=O)N[C@H](Cc1ccccc1)C(N)=O [copper-64 labelled],ex vivo gamma counting,"C57BL/6J mouse, male, normal, testis","intravenous, 1.85 MBq, 80 min",,tissue uptake,0.14 ± 0.05 %ID/g
CN1Cc2cc(Cl)ccc2-n2c(nnc2C2CCN(c3cccc([18F])n3)CC2)C1,,"C57BL/6 mouse male, heart","intravenous, 3.7 MBq, 30 min",,tissue uptake,6.54 ± 2 %ID/g
NC1CCN(C(=O)Oc2ccc(C3CCCC4(C3)OOC3(O4)C4CC5CC(C4)CC3C5)cc2)CC1 (racemic),,"male ICR mouse, plasma","intravenous, 10 mg/kg",,C0,2270 ng/mL
CC[C@H](C)[C@H](NC(=O)[C@H](C)NC(=O)[C@H](CCCCN)NC(=O)[C@H](CCCCN)NC(=O)[C@@H](N)CCCNC(=N)N)C(=O)N[C@@H](CCCCN)C(=O)N[C@@H](CC(C)C)C(=O)N[C@H](C(=O)N[C@@H](CCCCN)C(=O)N[C@@H](CCCCN)C(=O)N[C@@H](CC(C)C)C(=O)N[C@H](C(=O)N[C@@H](CCCCN)C(=O)N[C@@H](CCCCN)C(=O)N[C@@H](CC(C)C)C(=O)N[C@@H](CCCCN)C(=O)N[C@@H](CCCCN)C(=O)N[C@@H](C)C(=O)N[C@@H](CC(C)C)C(=O)N[C@@H](CCCCN)C(=O)O)C(C)C)C(C)C,,human red blood cells,"0.25 mg/L, 1 h",,hemolysis,0.0177% and 0.0707% and 0.23%
CCCCC[C@@H]1NC(=O)[C@@H](C)N(C)C(=O)[C@H](CCCCC)OC(=O)[C@@H](C)N(C)C(=O)[C@H](CCCCC)NC(=O)[C@@H](C)N(C)C(=O)[C@H](CCCCC)OC(=O)[C@@H](C)N(C)C1=O,"PAMPA, HPLC-UV",,"500 µM, pH 7.4",,log Papp,-5.23 ± 0.04
CCCCCCCCCCCCCC(=O)N[C@@H](Cc1ccccc1)C(=O)N[C@H](C(=O)N[C@@H](CCC(=O)O)C(=O)N[C@H](C(=O)N1CCC[C@H]1C(=O)N[C@H](C(=O)N[C@H](C(=O)O)[C@@H](C)CC)[C@@H](C)O)[C@@H](C)CC)[C@@H](C)O,"slit lamp, fundoscopy, McDonald-Shadduck scoring",Chlorocebus sabaeus,"topical ocular, dose not given, 21 days",,ocular tolerability,not toxic
N=C(N)NCCC[C@@H](NC(=O)[C@H](N)Cc1c[nH]c2ccccc12)C(=O)N[C@H](CCCCN)C(=O)N[C@H](Cc1c[nH]c2ccccc12)C(=O)N[C@H](CCCNC(=N)N)C(=O)N[C@H](CCCCN)C(=O)N[C@H](Cc1c[nH]c2ccccc12)C(=O)N[C@H](CCCNC(=N)N)C(=O)N[C@H](CCCCN)C(=O)N[C@H](Cc1c[nH]c2ccccc12)C(=O)N[C@H](CCCNC(=N)N)C(=O)N[C@H](CCCCN)C(N)=O,,mouse,"intraperitoneal, 30 mg/kg single dose, day 3",,survival,100%
CC(C)C[C@H](NC(=O)[C@H](C)NC(=O)[C@H](CCCCN)NC(=O)CCNC(=S)Nc1ccc2c(c1)C(=O)OC21c2ccc(O)cc2Oc2cc(O)ccc21)C(=O)N[C@@]1(C)CCCC=CCCC[C@@](C)(C(=O)N[C@H](C(=O)NCC(=O)N[C@@H](CC(=O)O)C(=O)NCC(=O)N[C@H](C(=O)N[C@@H](CCC(N)=O)C(=O)N[C@@H](CCCNC(=N)N)C(=O)N[C@@H](CC(N)=O)C(=O)N[C@@H](Cc2c[nH]cn2)C(=O)N[C@@H](CCC(=O)O)C(=O)N[C@H](C(=O)N[C@@H](C)C(=O)N[C@@H](Cc2ccccc2)C(N)=O)[C@@H](C)O)C(C)C)C(C)C)NC(=O)[C@H](CCCNC(=N)N)NC(=O)[C@H](CC(C)C)NC(=O)[C@H]([C@@H](C)O)NC1=O,circular dichroism,potassium phosphate buffer,"20 µM, pH 7.5",,α-helicity,100%
COc1ccc([C@@H]2CC(=O)c3c(O)cc(O[C@@H]4O[C@H](CO)[C@@H](O)[C@H](O)[C@H]4O[C@@H]4O[C@@H](C)[C@H](O)[C@@H](O)[C@H]4O)cc3O2)cc1O,,"male Sprague-Dawley rats, obese, urine","oral, 100 mg/kg, 48 h",relative to: oral dose,urinary recovery,0.0034 ± 0.001%
O=C1NC2(CC2)COc2ncc(F)cc2[C@H]2COCCN2c2ccn3ncc1c3n2,,"Sprague-Dawley rat, female, brain","oral, 10 mg/kg/day, 4 weeks dosing, end of recovery",,organ-to-body weight ratio,0.662 ± 0.09%
CC(C)[C@@H]1NC(=O)CNC(=O)[C@H](CC(N)=O)NC(=O)[C@H](CCCNC(=N)N)NC(=O)[C@H](Cc2ccc(O)cc2)NC(=O)[C@H](C(C)C)NC(=O)[C@@H](NC(=O)[C@@H](NC(=O)[C@H](CC(N)=O)NC(=O)[C@H](Cc2c[nH]c3ccccc23)NC(=O)[C@H](C)NC(=O)[C@H](Cc2ccccc2)NC(=O)CNC(=O)[C@H](CCCCN)NC(=O)[C@H](Cc2ccccc2)NC(=O)[C@H](Cc2ccccc2)NC(=O)[C@H](CCCCN)NC(=O)OCC2c3ccccc3-c3ccccc32)C(C)C)CSSC[C@@H](C(=O)N[C@@H](Cc2c[nH]cn2)C(=O)N[C@@H](CCCNC(=N)N)C(=O)N[C@@H](CCCNC(=N)N)C(=O)N[C@@H](C)C(=O)N[C@@H](CC(N)=O)C(N)=O)NC(=O)[C@H](C(C)C)NC(=O)[C@H](CCCNC(=N)N)NC1=O,,"ICR mice, blood","intraductal mammary, 10 mg/kg, day 5",,plateletcrit,0.03%
CC(CCC(=O)NCC(=O)O)C1CCC2C3CCC4CC(OC5OC(C(=O)O)C(O)C(O)C5O)CCC4(C)C3CC(O)C12C (centres unmarked),,human men,"dose not given, SLCO1B1 *5/*14",,plasma concentration,148 ng/mL
C#Cc1c(F)ccc2cc(O)cc(-c3ncc4c(N5CC6CCC(C5)N6C(=O)OC(C)OC(=O)c5cccnc5)nc(OC[C@@]56CCCN5C[C@H](F)C6)nc4c3F)c12 (some centres unmarked),item: prodrug,mouse whole blood,1 µM,,t1/2,25.7 min
CC[C@H](C)[C@H](NC(=O)[C@H](CCCCN)NC(=O)CNC(=O)[C@H](CC(C)C)NC(=O)[C@H](Cc1ccccc1)NC(=O)[C@H](CCCCN)NC(=O)[C@H](CO)NC(=O)[C@H](Cc1ccccc1)NC(=O)[C@H](Cc1c[nH]c2ccccc12)NC(=O)[C@H](CCC(N)=O)NC(=O)[C@@H](NC(=O)[C@H](Cc1ccccc1)NC(=O)CCCCCNC(=O)CN1CCN(CC(=O)O)CCN(CC(=O)O)CCN(CC(=O)O)CC1)C(C)C)C(=O)N[C@@H](CCC(=O)O)C(=O)N1CCC[C@H]1C(=O)N[C@@H](CC(=O)O)C(=O)N[C@H](C(=O)N[C@@H](CO)C(=O)N[C@@H](CCC(N)=O)C(=O)N[C@H](C(=O)N[C@@H](CCC(N)=O)C(=O)N[C@@H](CC(=O)O)C(=O)N1CCC[C@H]1C(=O)N[C@@H](CC(N)=O)C(=O)N[C@@H](CC(=O)O)C(=O)N[C@@H](CCC(N)=O)C(=O)N[C@@H](Cc1ccc(O)cc1)C(=O)N[C@@H](CCC(=O)O)C(=O)N1CCC[C@H]1C(=O)N[C@@H](Cc1ccccc1)C(=O)O)C(C)C)C(C)C [copper-64 labelled],,"C57BL/6 male mouse, tumour-naive, large intestine",24 h,,tissue uptake,6.8 ± 0.9 %ID/g
CC[C@H](C)[C@H](NC(=O)[C@H](Cc1ccc(O)cc1)NC(=O)[C@@H](NC(=O)[C@H](CCCNC(=N)N)NC(=O)[C@@H](N)CC(=O)O)C(C)C)C(=O)N[C@@H](Cc1c[nH]cn1)C(=O)N1CCC[C@H]1C(=O)O,,Sprague-Dawley rat,"sc, 10 mg/kg/day, 28 days",,toxicity,not toxic
CSCC[C@H](N)C(=O)N[C@@H](C)C(=O)N[C@@H](Cc1c[nH]c2ccccc12)C(=O)N[C@@H](Cc1c[nH]cn1)C(=O)N[C@@H](CC(=O)O)C(=O)N[C@@H](CC(=O)O)C(=O)N[C@@H](CCC(=O)O)C(=O)N[C@@H](CCC(=O)O)C(=O)N[C@@H](Cc1ccccc1)C(=O)N[C@@H](C)C(=O)N[C@@H](CCCNC(=N)N)C(=O)N[C@@H](CCCNC(=N)N)C(=O)N[C@@H](CCCNC(=N)N)C(=O)N[C@@H](CCCNC(=N)N)C(=O)NCCCCCC(=O)NCCCCC(NC(=O)CCCCCNC(=O)[C@H](CCCNC(=N)N)NC(=O)[C@H](CCCNC(=N)N)NC(=O)[C@H](CCCNC(=N)N)NC(=O)[C@H](CCCNC(=N)N)NC(=O)[C@H](C)NC(=O)[C@H](Cc1ccccc1)NC(=O)[C@H](CCC(=O)O)NC(=O)[C@H](CCC(=O)O)NC(=O)[C@H](CC(=O)O)NC(=O)[C@H](CC(=O)O)NC(=O)[C@H](Cc1c[nH]cn1)NC(=O)[C@H](Cc1c[nH]c2ccccc12)NC(=O)[C@H](C)NC(=O)[C@@H](N)CCSC)C(=O)NCCCCC(NC(=O)C(CCCCNC(=O)CCCCCNC(=O)[C@H](CCCNC(=N)N)NC(=O)[C@H](CCCNC(=N)N)NC(=O)[C@H](CCCNC(=N)N)NC(=O)[C@H](CCCNC(=N)N)NC(=O)[C@H](C)NC(=O)[C@H](Cc1ccccc1)NC(=O)[C@H](CCC(=O)O)NC(=O)[C@H](CCC(=O)O)NC(=O)[C@H](CC(=O)O)NC(=O)[C@H](CC(=O)O)NC(=O)[C@H](Cc1c[nH]cn1)NC(=O)[C@H](Cc1c[nH]c2ccccc12)NC(=O)[C@H](C)NC(=O)[C@@H](N)CCSC)NC(=O)CCCCCNC(=O)[C@H](CCCNC(=N)N)NC(=O)[C@H](CCCNC(=N)N)NC(=O)[C@H](CCCNC(=N)N)NC(=O)[C@H](CCCNC(=N)N)NC(=O)[C@H](C)NC(=O)[C@H](Cc1ccccc1)NC(=O)[C@H](CCC(=O)O)NC(=O)[C@H](CCC(=O)O)NC(=O)[C@H](CC(=O)O)NC(=O)[C@H](CC(=O)O)NC(=O)[C@H](Cc1c[nH]cn1)NC(=O)[C@H](Cc1c[nH]c2ccccc12)NC(=O)[C@H](C)NC(=O)[C@@H](N)CCSC)C(N)=O (some centres unmarked),,"C57BL/6 mouse female, colon","dose not given, 6 h",relative to: total,tissue distribution,5.34% and 3.95% and 6.95%
C=CC(=O)Nc1cccc(Cn2ncc3cnc(Nc4cnn(CCOC)c4)nc32)c1,,male Sprague-Dawley rat,"oral, 180 mg/kg/day, day 28, 28-day subacute toxicity",,serum HDL,0.58 ± 0.15 mM

# Repeated from above:
Structure (SMILES),assay,system,setting,how to read,endpoint,value
CCCCC[C@@H]1NC(=O)[C@@H](C)N(C)C(=O)[C@H](CCCCC)OC(=O)[C@@H](C)N(C)C(=O)[C@H](CCCCC)NC(=O)[C@@H](C)N(C)C(=O)[C@H](CCCCC)OC(=O)[C@@H](C)N(C)C1=O,"PAMPA, HPLC-UV",,"500 µM, pH 7.4",,log Papp,-5.23 ± 0.04
N=C(N)NCCC[C@@H](NC(=O)[C@H](N)Cc1c[nH]c2ccccc12)C(=O)N[C@H](CCCCN)C(=O)N[C@H](Cc1c[nH]c2ccccc12)C(=O)N[C@H](CCCNC(=N)N)C(=O)N[C@H](CCCCN)C(=O)N[C@H](Cc1c[nH]c2ccccc12)C(=O)N[C@H](CCCNC(=N)N)C(=O)N[C@H](CCCCN)C(=O)N[C@H](Cc1c[nH]c2ccccc12)C(=O)N[C@H](CCCNC(=N)N)C(=O)N[C@H](CCCCN)C(N)=O,,mouse,"intraperitoneal, 30 mg/kg single dose, day 3",,survival,100%
